# Measured values collected from several papers.
# Parts stem from different laboratories: compare values within a part only.
# Chain of UniProt P42680 (whole entry, looked up): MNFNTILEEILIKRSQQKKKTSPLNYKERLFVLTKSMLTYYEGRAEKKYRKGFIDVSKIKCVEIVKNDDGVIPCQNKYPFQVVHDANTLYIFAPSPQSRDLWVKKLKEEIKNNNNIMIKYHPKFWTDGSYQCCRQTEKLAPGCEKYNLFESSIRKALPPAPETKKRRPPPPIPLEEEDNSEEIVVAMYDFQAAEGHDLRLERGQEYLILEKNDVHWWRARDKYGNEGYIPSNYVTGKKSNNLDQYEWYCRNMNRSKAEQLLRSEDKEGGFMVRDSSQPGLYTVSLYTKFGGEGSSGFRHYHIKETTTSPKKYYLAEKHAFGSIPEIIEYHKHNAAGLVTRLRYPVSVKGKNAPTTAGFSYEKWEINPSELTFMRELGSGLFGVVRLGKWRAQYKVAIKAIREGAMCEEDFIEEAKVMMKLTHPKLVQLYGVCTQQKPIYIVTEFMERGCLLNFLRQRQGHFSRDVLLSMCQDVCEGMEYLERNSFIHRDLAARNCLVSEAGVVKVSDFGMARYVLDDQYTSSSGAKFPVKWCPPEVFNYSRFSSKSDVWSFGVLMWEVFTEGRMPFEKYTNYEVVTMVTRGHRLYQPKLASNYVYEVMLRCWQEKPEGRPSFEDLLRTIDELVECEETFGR
# Chain of UniProt Q96SB4 (whole entry, looked up): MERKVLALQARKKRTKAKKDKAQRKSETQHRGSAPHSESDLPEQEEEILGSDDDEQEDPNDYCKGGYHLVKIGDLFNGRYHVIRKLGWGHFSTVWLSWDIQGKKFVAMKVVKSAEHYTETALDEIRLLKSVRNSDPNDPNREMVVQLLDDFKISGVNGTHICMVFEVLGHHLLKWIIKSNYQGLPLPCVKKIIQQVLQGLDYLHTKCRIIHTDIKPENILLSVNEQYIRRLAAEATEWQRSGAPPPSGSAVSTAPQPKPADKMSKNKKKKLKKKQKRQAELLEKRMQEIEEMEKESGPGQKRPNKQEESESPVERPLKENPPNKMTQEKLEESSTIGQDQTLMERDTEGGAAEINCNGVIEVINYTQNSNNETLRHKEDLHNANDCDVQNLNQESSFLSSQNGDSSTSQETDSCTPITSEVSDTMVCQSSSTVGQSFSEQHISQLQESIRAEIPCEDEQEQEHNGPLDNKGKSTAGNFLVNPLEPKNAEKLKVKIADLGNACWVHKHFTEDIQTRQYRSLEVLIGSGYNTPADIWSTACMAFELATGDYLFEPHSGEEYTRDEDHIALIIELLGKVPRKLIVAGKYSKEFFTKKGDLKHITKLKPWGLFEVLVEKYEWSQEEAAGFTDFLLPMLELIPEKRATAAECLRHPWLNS
# Chain of UniProt Q96PY6 (whole entry, looked up): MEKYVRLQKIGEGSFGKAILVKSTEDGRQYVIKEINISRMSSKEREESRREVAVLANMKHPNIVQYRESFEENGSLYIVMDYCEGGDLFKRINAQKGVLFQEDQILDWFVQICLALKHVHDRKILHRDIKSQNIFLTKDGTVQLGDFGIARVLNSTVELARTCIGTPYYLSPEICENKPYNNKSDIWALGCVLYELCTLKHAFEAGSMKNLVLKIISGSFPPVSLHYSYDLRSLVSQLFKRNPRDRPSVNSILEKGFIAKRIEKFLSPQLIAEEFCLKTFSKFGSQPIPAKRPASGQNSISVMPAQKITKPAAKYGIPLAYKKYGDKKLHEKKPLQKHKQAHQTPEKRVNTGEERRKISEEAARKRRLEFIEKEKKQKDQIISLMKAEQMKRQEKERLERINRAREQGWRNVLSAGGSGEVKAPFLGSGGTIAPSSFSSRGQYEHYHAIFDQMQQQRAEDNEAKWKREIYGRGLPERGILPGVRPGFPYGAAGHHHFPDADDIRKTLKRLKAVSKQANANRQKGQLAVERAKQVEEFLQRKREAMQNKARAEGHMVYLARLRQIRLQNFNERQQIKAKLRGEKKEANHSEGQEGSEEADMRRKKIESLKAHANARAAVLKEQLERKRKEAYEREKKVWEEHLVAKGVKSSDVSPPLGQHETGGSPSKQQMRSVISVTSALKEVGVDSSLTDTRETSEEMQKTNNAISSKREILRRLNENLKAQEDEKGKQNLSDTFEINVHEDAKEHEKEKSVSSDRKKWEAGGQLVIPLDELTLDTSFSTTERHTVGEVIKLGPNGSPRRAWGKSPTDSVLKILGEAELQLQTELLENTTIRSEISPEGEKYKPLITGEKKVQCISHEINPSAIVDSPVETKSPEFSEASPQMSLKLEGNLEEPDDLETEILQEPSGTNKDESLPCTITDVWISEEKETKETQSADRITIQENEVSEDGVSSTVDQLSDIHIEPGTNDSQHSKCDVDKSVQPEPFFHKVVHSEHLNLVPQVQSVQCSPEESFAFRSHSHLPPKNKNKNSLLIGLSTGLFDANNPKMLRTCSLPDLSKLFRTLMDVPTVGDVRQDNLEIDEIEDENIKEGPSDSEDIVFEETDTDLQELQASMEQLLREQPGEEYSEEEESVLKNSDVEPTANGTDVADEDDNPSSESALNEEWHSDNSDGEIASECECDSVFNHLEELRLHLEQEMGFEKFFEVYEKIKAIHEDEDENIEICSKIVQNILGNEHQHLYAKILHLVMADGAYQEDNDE
# Chain of UniProt Q9NYL2 (whole entry, looked up): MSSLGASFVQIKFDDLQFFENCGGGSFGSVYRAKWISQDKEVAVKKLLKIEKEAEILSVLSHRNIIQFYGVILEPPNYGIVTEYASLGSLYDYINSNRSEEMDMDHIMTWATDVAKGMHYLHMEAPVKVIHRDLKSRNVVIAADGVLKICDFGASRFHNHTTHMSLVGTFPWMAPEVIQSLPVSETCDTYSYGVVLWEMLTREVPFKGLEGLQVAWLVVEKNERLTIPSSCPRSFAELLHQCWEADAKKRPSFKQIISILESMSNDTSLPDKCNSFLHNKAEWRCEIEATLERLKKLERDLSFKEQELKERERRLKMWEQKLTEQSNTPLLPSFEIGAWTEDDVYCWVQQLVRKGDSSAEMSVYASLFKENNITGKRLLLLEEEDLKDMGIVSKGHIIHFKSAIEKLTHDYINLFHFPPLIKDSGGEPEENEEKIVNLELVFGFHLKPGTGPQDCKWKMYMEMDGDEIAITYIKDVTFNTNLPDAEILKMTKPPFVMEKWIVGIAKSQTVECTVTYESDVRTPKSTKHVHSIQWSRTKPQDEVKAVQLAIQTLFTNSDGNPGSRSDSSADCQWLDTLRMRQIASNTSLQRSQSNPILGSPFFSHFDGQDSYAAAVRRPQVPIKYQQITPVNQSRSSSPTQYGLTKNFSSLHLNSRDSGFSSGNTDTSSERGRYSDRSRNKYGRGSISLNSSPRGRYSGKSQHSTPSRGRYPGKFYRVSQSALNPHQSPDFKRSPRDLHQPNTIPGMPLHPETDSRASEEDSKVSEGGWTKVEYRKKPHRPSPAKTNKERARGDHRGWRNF
# Chain of UniProt Q02763 (whole entry, looked up): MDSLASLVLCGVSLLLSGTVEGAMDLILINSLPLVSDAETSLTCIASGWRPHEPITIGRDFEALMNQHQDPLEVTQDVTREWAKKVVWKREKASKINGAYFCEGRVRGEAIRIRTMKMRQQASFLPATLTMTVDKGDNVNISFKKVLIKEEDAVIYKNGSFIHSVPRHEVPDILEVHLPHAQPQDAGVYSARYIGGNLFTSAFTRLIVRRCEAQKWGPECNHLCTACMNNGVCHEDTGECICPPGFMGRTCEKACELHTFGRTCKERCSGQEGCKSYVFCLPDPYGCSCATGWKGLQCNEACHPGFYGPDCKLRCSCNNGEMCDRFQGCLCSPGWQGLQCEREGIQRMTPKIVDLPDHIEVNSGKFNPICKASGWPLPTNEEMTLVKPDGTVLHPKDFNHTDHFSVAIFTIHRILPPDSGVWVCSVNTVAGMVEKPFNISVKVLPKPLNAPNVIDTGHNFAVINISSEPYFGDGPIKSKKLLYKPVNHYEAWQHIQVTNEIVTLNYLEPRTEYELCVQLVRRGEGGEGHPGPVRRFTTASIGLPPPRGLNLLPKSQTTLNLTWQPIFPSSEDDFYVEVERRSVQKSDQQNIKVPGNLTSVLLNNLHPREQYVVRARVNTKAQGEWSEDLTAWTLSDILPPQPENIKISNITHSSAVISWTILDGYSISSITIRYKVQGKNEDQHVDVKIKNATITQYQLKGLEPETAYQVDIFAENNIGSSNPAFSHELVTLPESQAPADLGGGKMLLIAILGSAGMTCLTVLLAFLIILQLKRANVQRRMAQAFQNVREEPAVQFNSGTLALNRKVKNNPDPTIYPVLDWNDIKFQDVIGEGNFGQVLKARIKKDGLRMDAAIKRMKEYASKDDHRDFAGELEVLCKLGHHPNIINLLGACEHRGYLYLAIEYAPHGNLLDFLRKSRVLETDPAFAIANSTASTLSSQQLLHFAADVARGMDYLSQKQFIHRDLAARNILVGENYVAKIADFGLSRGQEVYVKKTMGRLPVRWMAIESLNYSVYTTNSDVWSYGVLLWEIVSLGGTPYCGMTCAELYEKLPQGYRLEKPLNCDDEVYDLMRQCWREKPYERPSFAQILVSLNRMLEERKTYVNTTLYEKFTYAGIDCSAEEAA

# Set 1
# SMILES: Cc1c(C(=O)O)cc(-c2ccc(C3CCNCC3)cc2)c2ccc(-c3ccc(C(F)(F)F)cc3)cc12
# Method: competition with immobilised ligand
# Concentration: 1 µM
target,observed,remaining binding
"PIK3CB (Homo sapiens, UniProt P42338)",cell-free assay,100%
"TEC (Homo sapiens, UniProt P42680)",binding,100%
"SRPK1 (Homo sapiens, UniProt Q96SB4)",binding,100%
"Ribosomal protein S6 kinase alpha-5, C-terminal kinase domain (RPS6KA5, Homo sapiens, UniProt O75582)",binding,100%
"Tyrosine-protein kinase ABL1, non-phosphorylated (ABL1, Homo sapiens, UniProt P00519)",binding,85%
"GSK3A (Homo sapiens, UniProt P49840)",cell-free assay,100%
"CSF1R (Homo sapiens, UniProt P07333)",cell-free assay,100%
"STK32B (Homo sapiens, UniProt Q9NY57)",binding,100%
"IRAK3 (Homo sapiens, UniProt Q9Y616)",binding,100%
"DCLK3 (Homo sapiens, UniProt Q9C098)",binding,100%
"PLK4 (Homo sapiens, UniProt O00444)",binding,96%
"RET (Homo sapiens, UniProt P07949, V804M)",cell-free assay,98%
"CDK11B (Homo sapiens, UniProt P21127)",cell-free assay,100%
"CSNK1G1 (Homo sapiens, UniProt Q9HCP0)",cell-free assay,100%
"PTK2B (Homo sapiens, UniProt Q14289)",cell-free assay,100%
"IRAK4 (Homo sapiens, UniProt Q9NWZ3)",binding,100%
"NEK1 (Homo sapiens, UniProt Q96PY6)",binding,100%
"CDKL3 (Homo sapiens, UniProt Q8IVW4)",binding,100%
"MAP2K1 (Homo sapiens, UniProt Q02750)",binding,100%
"TEK (Homo sapiens, UniProt Q02763)",cell-free assay,100%
"CDC42BPA (Homo sapiens, UniProt Q5VT25)",cell-free assay,100%
"GRK1 (Homo sapiens, UniProt Q15835)",binding,100%
"Mast/stem cell growth factor receptor Kit, autoinhibited (KIT, Homo sapiens, UniProt P10721)",binding,84%
"PAK5 (Homo sapiens, UniProt Q9P286)",cell-free assay,98%
"LATS1 (Homo sapiens, UniProt O95835)",binding,86%

# Set 2
# SMILES: N#CC(c1ccnc(NCCc2cccnc2)n1)c1nc2ccccc2s1 (stereo not shown)
# Observed: enzyme activity
# Action: inhibitor
# Concentration: 0.5 µM
# Baseline: control
target,remaining activity
"CAMK1 (Homo sapiens, UniProt Q14012)",101%
"EPHA2 (Homo sapiens, UniProt P29317)",103%
"IGF1R (Homo sapiens, UniProt P08069)",100%
"TYRO3 (Homo sapiens, UniProt Q06418)",98.3%
"SRPK1 (Homo sapiens, UniProt Q96SB4)",97%
"CSNK1E (Homo sapiens, UniProt P49674)",74.9%
"SGK2 (Homo sapiens, UniProt Q9HBY8)",100%
"CSNK1D (Homo sapiens, UniProt P48730)",65%
"CLK1 (Homo sapiens, UniProt P49759)",75.4%
"JAK1 (Homo sapiens, UniProt P23458)",113%
"PRKCZ (Homo sapiens, UniProt Q05513)",102%
"FLT1 (Homo sapiens, UniProt P17948)",74%
"TEC (Homo sapiens, UniProt P42680)",104%
"SIK2 (Homo sapiens, UniProt Q9H0K1)",96.4%
"PRKCQ (Homo sapiens, UniProt Q04759)",104%
"EPHA6 (Homo sapiens, UniProt Q9UF33)",87.1%
"Cyclin-dependent kinase 2, with cyclin E (CDK2, Homo sapiens, UniProt P24941)",82.7%
"PAK6 (Homo sapiens, UniProt Q9NQU5)",97.6%
"MAP3K20 (Homo sapiens, UniProt Q9NYL2)",90.4%
"CLK2 (Homo sapiens, UniProt P49760)",48.5%
"CAMKK1 (Homo sapiens, UniProt Q8N5S9)",101%

# Set 3
# Method: logD(dd/w) and ALogP
# Setting: JT method
SMILES,lipophilic permeability efficiency
CC(C)C[C@@H]1NC(=O)[C@H](CC(C)C)NC(=O)[C@@H](CC(C)C)NC(=O)[C@@H](CC(C)C)NC(=O)[C@@H](CCC(=O)N2CCCC2)NC(=O)[C@H](CC(C)C)NC(=O)[C@@H](CC(C)C)NC1=O,2.24
CC(C)C[C@@H]1NC(=O)[C@H](C)NC(=O)[C@H](CCC(=O)N2CCCC2)NC(=O)[C@H](C)NC(=O)[C@H](CC(C)C)NC(=O)[C@H](CC(C)C)NC(=O)[C@@H](C(C)C)NC1=O,1.39
CC(C)C[C@@H]1NC(=O)[C@H](C(C)C)NC(=O)[C@H](C)NC(=O)[C@H](CCC(=O)N2CCCC2)NC(=O)[C@@H](CCC(=O)N2CCCC2)NC(=O)[C@H](CC(C)C)NC(=O)[C@@H](CC(C)C)NC1=O,1.69
CC(C)C[C@@H]1NC(=O)[C@H](C)NC(=O)[C@H](C)NC(=O)[C@H](CC(C)C)NC(=O)[C@H](C(C)C)NC(=O)[C@H](CC(C)C)NC(=O)[C@@H](CC(C)C)NC1=O,2.06
CC(C)C[C@@H]1NC(=O)[C@H](C)NC(=O)[C@@H](CC(C)C)NC(=O)[C@H](C(C)C)NC(=O)[C@H](CC(C)C)NC(=O)[C@@H](CC(C)C)NC(=O)[C@H](CC(C)C)NC1=O,2.48
CC(C)C[C@@H]1NC(=O)[C@H](CC(C)C)NC(=O)[C@@H](C(C)C)NC(=O)[C@H](CC(C)C)NC(=O)[C@H](C(C)C)NC(=O)[C@H](C)NC(=O)[C@H](C)NC1=O,2.68
CC(C)C[C@@H]1NC(=O)[C@H](C)NC(=O)[C@@H](CC(C)C)NC(=O)[C@H](C)NC(=O)[C@H](CC(C)C)NC(=O)[C@H](CC(C)C)NC(=O)[C@@H](C(C)C)NC1=O,2.57
CC(C)C[C@@H]1NC(=O)[C@H](C)NC(=O)[C@H](CCC(=O)N2CCCC2)NC(=O)[C@@H](CCC(=O)N2CCCC2)NC(=O)[C@H](CC(C)C)NC(=O)[C@@H](CC(C)C)NC(=O)[C@H](CC(C)C)NC1=O,1.41
CC(C)C[C@@H]1NC(=O)[C@H](CC(C)C)NC(=O)[C@H](CC(C)C)NC(=O)[C@H](CC(C)C)NC(=O)[C@H](C(C)C)NC(=O)[C@H](Cc2cscn2)NC(=O)[C@H](C)NC1=O,2.84
CC(C)C[C@@H]1NC(=O)[C@H](CC(C)C)NC(=O)[C@@H](C(C)C)NC(=O)[C@H](C)NC(=O)[C@H](C(C)C)NC(=O)[C@H](C)NC(=O)[C@H](C)NC1=O,2.36
CC(C)C[C@@H]1NC(=O)[C@@H](C)NC(=O)[C@H](CCC(=O)N2CCCC2)NC(=O)[C@H](C)NC(=O)[C@H](C(C)C)NC(=O)[C@H](CC(C)C)NC(=O)[C@@H](CC(C)C)NC1=O,2.32
CC(C)C[C@@H]1NC(=O)[C@@H](C)NC(=O)[C@H](C)NC(=O)[C@H](C)NC(=O)[C@H](C(C)C)NC(=O)[C@H](CC(C)C)NC(=O)[C@@H](CC(C)C)NC1=O,1.95
CC(C)C[C@@H]1NC(=O)[C@H](CC(C)C)NC(=O)[C@@H](CC(C)C)NC(=O)[C@H](CC(C)C)NC(=O)[C@@H](CCC(=O)N2CCCC2)NC(=O)[C@H](C)NC(=O)[C@H](C)NC1=O,1.78

# Set 4
# Compound: CC(C)S(=O)(=O)c1ccc2nccc(Nc3ccc4sc(C5CCCC5)nc4c3)c2c1
# Target: Receptor-interacting serine/threonine-protein kinase 3 (RIPK3, Homo sapiens, UniProt Q9Y572)
# Chain of UniProt Q9Y572 (whole entry, looked up): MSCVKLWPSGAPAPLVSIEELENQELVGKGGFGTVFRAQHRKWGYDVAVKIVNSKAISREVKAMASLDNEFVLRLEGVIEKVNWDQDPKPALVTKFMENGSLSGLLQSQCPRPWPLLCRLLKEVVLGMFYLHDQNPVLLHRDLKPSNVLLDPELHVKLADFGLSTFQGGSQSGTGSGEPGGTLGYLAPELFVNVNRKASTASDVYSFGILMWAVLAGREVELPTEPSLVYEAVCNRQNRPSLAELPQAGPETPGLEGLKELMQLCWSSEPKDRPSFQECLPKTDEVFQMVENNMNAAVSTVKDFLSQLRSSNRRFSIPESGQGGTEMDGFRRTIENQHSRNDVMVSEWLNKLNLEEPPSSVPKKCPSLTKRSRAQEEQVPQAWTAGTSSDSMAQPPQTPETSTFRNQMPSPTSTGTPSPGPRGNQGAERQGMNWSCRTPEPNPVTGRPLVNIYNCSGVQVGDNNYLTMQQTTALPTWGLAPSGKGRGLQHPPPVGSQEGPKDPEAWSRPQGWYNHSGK
# Observed: kinase activity
# Action: inhibitor
# Method: ADP-Glo
# Time: 1 h
concentration,inhibition [%]
3.704 nM,57.6
11.11 nM,82.4
300 nM,102
100 nM,98.5
33.33 nM,83.6

# Some of these lines once more (set 1):
target,observed,remaining binding
"PIK3CB (Homo sapiens, UniProt P42338)",cell-free assay,100%
"TEC (Homo sapiens, UniProt P42680)",binding,100%
"SRPK1 (Homo sapiens, UniProt Q96SB4)",binding,100%
"Ribosomal protein S6 kinase alpha-5, C-terminal kinase domain (RPS6KA5, Homo sapiens, UniProt O75582)",binding,100%
